Results gathered from unrelated publications.
Protocols differ between the studies behind these lines. Numbers after ± are the reported error.
Organism: varicella-zoster virus

| SMILES | observed | technique | cell line | strain | EC50 [µM] |
| --- | --- | --- | --- | --- | --- |
| Cc1ccc2c(c1)/C(=N/NC(=O)N/N=C1\C(=O)Nc3ccc(C)cc31)C(=O)N2 | plaque formation |  | HEL | TK- | > 100 |
| O=Cc1cc(Cn2cc(F)c(=O)[nH]c2=O)ccc1O | plaque formation | plaque reduction | HEL fibroblasts | TK- strain 07-1 | > 100 |
| NC1=NC(=O)N(C[C@@H](CF)OCP(=O)(O)O)CN1 | plaque formation |  | HEL | TK-deficient 07-1 | > 100 |
| O=c1[nH]c(=O)n([C@H]2C[C@H](O)[C@@H](CO)O2)cc1/C=C/Br | plaque formation |  | HEL | TK- | 143 |
| CCCCCCCCCCCCCCCCOCCCOP(=O)(O)COCCn1cnc2c(=O)[nH]c(=O)[nH]c21 | plaque formation |  | HEL | Oka TK+ | 0.1 ± 0.05 |
| Nc1ncn(CC(OCP(=O)(O)O)C(F)(F)F)c(=O)n1 (centres unmarked) | plaque formation |  | HEL | TK-deficient 07-1 | > 100 |
| O=c1[nH]c(=O)n([C@H]2C[C@H](O)[C@@H](CO)O2)cc1/C=C/Br | plaque formation |  | HEL | TK- 07-1 | 19.6 ± 23 |
| O=C(N/N=C1\C(=O)Nc2ccc(Cl)cc21)N/N=C1\C(=O)Nc2ccc(Cl)cc21 | plaque formation |  | HEL | TK+ | > 20 |
| Cc1cn(Cc2ccc(O)c(C=O)c2)c(=O)[nH]c1=O | plaque formation | plaque reduction | HEL fibroblasts | TK+ strain OKA | > 100 |
| CCOP(=O)(OCC)[C@@H]1C[C@H](C(=O)Nc2cc3c4c(cccc4c2)C(=O)N(CCN(CC)CC)C3=O)ON1C (racemic) | viral plaque formation | plaque reduction | HEL | thymidine kinase deficient | 44 |
| Nc1ncn(CC(O)C(F)(F)F)c(=O)n1 (centres unmarked) | plaque formation |  | HEL | TK-deficient 07-1 | 126 ± 13.8 |
| Cc1nn(Cc2ccc(O)c(C=O)c2)c(=O)[nH]c1=O | plaque formation | plaque reduction | HEL fibroblasts | TK- strain 07-1 | > 20 |
| O=C1/C(=N\NC(=S)NN=Cc2ccccc2)c2ccccc2N1Cc1ccccc1 | plaque formation |  | HEL | TK+ | > 100 |
| CC(C)OP(=O)(CO[C@H](CF)Cn1cnc(N)nc1=O)OC(C)C | plaque formation |  | HEL | TK-deficient 07-1 | 8.8 ± 0.2 |
| O=Cc1cc(Cn2ccc(=O)[nH]c2=O)ccc1O | plaque formation | plaque reduction | HEL fibroblasts | TK+ strain OKA | > 100 |
| O=C1Nc2ccccc2/C1=N/NC(=S)N/N=C1\C(=O)Nc2ccccc21 | plaque formation |  | HEL | TK- | > 20 |
| Nc1ccn(C[C@@H](CO)OCP(=O)(O)O)c(=O)n1 | plaque formation |  | HEL | Oka TK+ | 0.92 ± 0.38 |
| Nc1ncn(C[C@@H](CF)OCP(=O)(O)O)c(=O)n1 | plaque formation |  | HEL | TK-deficient 07-1 | > 100 |
| O=C(N/N=C1\C(=O)Nc2ccc([N+](=O)[O-])cc21)N/N=C1\C(=O)Nc2ccc([N+](=O)[O-])cc21 | plaque formation |  | HEL | TK- | > 20 |
| O=c1nc(NC2CC2)c2ncn(CCOCP(=O)(O)O)c2[nH]1 | plaque formation |  | HEL | Oka TK+ | > 100 |

Repeated from above:
| SMILES | observed | technique | cell line | strain | EC50 [µM] |
| --- | --- | --- | --- | --- | --- |
| O=c1nc(NC2CC2)c2ncn(CCOCP(=O)(O)O)c2[nH]1 | plaque formation |  | HEL | Oka TK+ | > 100 |
